Measurements of several laboratories.
Protocols differ between the studies behind these lines. Values joined by “and” are separate records of one study, mostly repeats; a detail may differ. ± marks the error that the study gave.

SMILES | tested on | assay | system | conditions | scale | endpoint | value
COc1cc2nc(N3CCN(C(=O)C4CC5(CC5)CO4)CC3)nc(N)c2cc1OC (stereo not shown) |  | blood pressure | spontaneously hypertensive rat, male | oral, 3 mg/kg |  | time to maximum BP lowering | 15 min
Cc1ncsc1-c1ccc(C(C)NC(=O)C2CC(O)CN2C(=O)C(NC(=O)CCCCCCCCCCN2CCCC(Nc3ncc(Cl)c(Nc4ccccc4S(=O)(=O)C(C)C)n3)C2)C(C)(C)C)cc1 (stereo not shown) | 22Rv1 | RNA-seq, measured: ZNF776 mRNA |  | concentration not given | relative to: DMSO | log2 fold change | -1.29
CC(C)OC(=O)[C@H](CO)NCc1cc(Cl)c(OCc2cccc(-c3ccccc3)c2Br)cc1OCc1cccnc1 |  |  | hPD-L1 MC-38 tumour, humanised hPD-1 C57BL/6 mouse | oral, 10 mg/kg × 21 |  | tumour weight | 1.27 ± 0.79 g
CN1CCC[C@]1(C)/C=C/S(=O)(=O)NC(=O)Nc1c2c(cc3c1CCC3)CCC2 |  |  | human, whole blood ex vivo | 50 mg twice daily, day 14, 24 h, multiple ascending dose, added: LPS and ATP |  | IL-18 inhibition | 107%
CN1CCCNC(=O)c2cccc(c2)C(=O)NCCCN(C)CCCNc2cccc3c2C(=O)c2cccc(c2C3=O)NCCC1 |  |  | KSN/Slc nude mice, SAS xenograft | dose not given, day 2, 48 h |  | tumour volume | 99.7 mm3 and 110 mm3 and 159 mm3 and 101 mm3 and 51.5 mm3
CC(C)C[C@H](NC(=O)[C@H](Cc1ccccc1)NC(=O)[C@H](C)NC(=O)[C@@H](CS)NC(=O)CNC(=O)[C@H](N)CO)C(=O)N[C@@H](CO)C(=O)N[C@H](C(=O)N[C@@H](CCCCN)C(=O)N[C@@H](CCCCN)C(=O)N[C@@H](CCC(N)=O)C(=O)N[C@@H](Cc1ccccc1)C(=O)N[C@@H](CCC(=O)O)C(=O)N[C@@H](CCC(=O)O)C(=O)N[C@@H](CC(C)C)C(=O)N[C@H](C(=O)N[C@@H](CC(C)C)C(=O)NCC(=O)N[C@@H](CCC(=O)O)C(=O)N[C@@H](Cc1ccccc1)C(=O)N[C@@H](CC(C)C)C(=O)N[C@H](CCCCN)C(=O)N[C@H](CC(C)C)C(=O)N[C@H](CC(=O)O)C(=O)N[C@@H](CCCNC(=N)N)C(=O)N[C@H](CCCNC(=N)N)C(=O)N[C@@H](CCCNC(=N)N)C(=O)N[C@@H](CCCCN)C(=O)O)[C@@H](C)O)C(C)C |  | immunofluorescence | mouse A549 xenograft, tumour | intratumoral and intravenous, dose not given |  | ABCG2 level | decreased
Cc1ccc(S(=O)(=O)NN)cc1 |  | hydrazine ligation kinetics, absorbance |  | concentration not given, 20 s, added: 2-formylphenylboronic acid |  | normalised absorbance | 0.745
CCCCCCCCCCCCCCCC(=O)OCC(CSC[C@H](N)C(=O)N[C@@H](CO)C(=O)N[C@@H](CCCCN)C(=O)N[C@@H](CCCCN)C(=O)N[C@@H](CCCCN)C(=O)N[C@@H](CCCCN)C(=O)NCCCCCC(=O)N[C@@H](CCCCN)C(=O)N[C@@H](CC(C)C)C(=O)N[C@H](C(=O)N[C@@H](Cc1ccccc1)C(=O)N[C@@H](Cc1ccccc1)C(=O)N[C@@H](Cc1ccc2ccccc2c1)C(=O)O)C(C)C)OC(=O)CCCCCCCCCCCCCCC (stereo partly shown) |  | OC antibody staining | APP/PS1 transgenic mouse, cortex | intracortical injection, dose not given, 5 d | relative to: injected over adjacent area | Aβ plaque area ratio | 0.524 and 0.635 and 0.593 and 0.675 and 0.483 and 0.693 and 0.286 and 0.429
COc1ccc(NC(=O)c2ccc3[nH]c(-c4ccc(N(C)C)cc4)nc3c2)cn1 |  |  | Lewis lung carcinoma, mice, syngeneic graft, subcutaneous | intraperitoneal, 25 mg/kg daily, day 7 |  | tumour volume | 526 mm3 and 462 mm3 and 542 mm3 and 344 mm3 and 353 mm3
COCCNCCOc1cc(C)cc(C(C)C)c1 |  | locomotor activity in dark | Danio rerio larvae, 7 dpf, well of 10 larvae | 10 µM, minute 5, dark |  | third-quartile larval motion | 6.8 ± 0.8 pixels/frame
COc1ccccc1-c1ccncc1C(=O)Nc1nnc(OCc2ccc(Cl)cc2)s1 |  |  | Brca1 Δ11/Δ11 Polq-/- MEFs, mouse | 1.25 µM |  | colony count | 66 and 57 and 96 and 43 and 68 and 95
Cc1cccc(C)c1CNc1cc(C(=O)N2CCC2)cn2c(C)c(C)nc12 |  | histamine-stimulated acid secretion | dog, Heidenhain pouch | oral, 5 mg/kg, 1 h, 9 h after dosing |  | inhibition | 100%
COc1c(Cl)cccc1Nc1c(-c2ccncc2C#C[C@@]2(C)CCCN2C(=O)/C=C/CN(C)C)[nH]c2c1C(=O)NCC2 |  |  | CUTO14, EGFR ASV, female NSG mouse, CUTO14 xenograft | 100 mg/kg once daily, 21 days |  | tumour growth inhibition | 200%
COc1ccc(C(=O)CCc2cc(C(CCc3ccc(O)cc3OC)c3ccc(O)cc3)c(O)cc2OC)cc1 (racemic) |  | measured: 12-HEPE | human whole blood | 30 µM, added: A23187 |  | amount | 227 ± 62 pg/mL blood
CC(C)(C)NCC(SS(=O)(=O)O)c1ccccc1 (stereo not shown) |  |  | Swiss Webster mice, Schistosoma mansoni-infected | 200 mg/kg single dose on day 42 post-infection, perfusion day 56 post-infection |  | spleen weight | 0.68 g
CC(=O)[O-].O.O.O.O.[Mn+2].[O-]c1ccc(Br)cc1C=NCCN1CCOCC1 |  | superoxide scavenging |  | 40 µM |  | inhibition | 7.15%

SMILES | tested on | assay | system | conditions | scale | endpoint | value
OC(COCC1COc2ccccc2O1)CN1CCN(c2ccccc2)CC1 (stereo not shown) |  | locomotor activity in dark | Danio rerio larvae, 7 dpf, well of 10 larvae | 10 µM, minute 5, dark |  | third-quartile larval motion | 3.7 ± 1.2 pixels/frame
CC(CCC(=O)NCc1ccc(C(=O)NO)cc1)C1CCC2C3C(O)CC4CC(O)CCC4(C)C3CCC12C (stereo not shown) |  | measured: UDCA | PCK rat (Pkhd1 mutant), portal blood | oral gavage, dose not given, 5 months | relative to: total bile acids | relative abundance | 1.68%
Cc1ccc(C)c(OCC(O)CN2CCN(c3cc(Cl)ccc3C)CC2)c1 (stereo not shown) |  | locomotor activity in dark | Danio rerio larvae, 7 dpf, well of 10 larvae | 10 µM, minute 7, dark |  | third-quartile larval motion | 0 pixels/frame
CCOCc1ccc(O[C@@H]2O[C@@H](C)[C@H](O)[C@@H](O)[C@H]2O)cc1 |  | ABTS radical |  | 300 µg/mL |  | radical scavenging | 11.5 ± 0.4%
COc1cc([C@@H]2O[C@@H](c3cc(OC)c(O[C@@H]4O[C@H](CO)[C@@H](O)[C@H](O)[C@H]4O)c(OC)c3)[C@H](CO)[C@H]2CO)cc(OC)c1O |  | Oil Red O | 3T3-L1, mouse | 5 µM, day 8 | relative to: vehicle | lipid accumulation | 43.4 ± 2.48%
COc1ccc(N2CCN(CC(O)COc3ccc4ccccc4c3)CC2)cc1 (stereo not shown) |  | locomotor activity in dark | Danio rerio larvae, 7 dpf, well of 10 larvae | 10 µM, minute 5, dark |  | third-quartile larval motion | 4.2 ± 0.9 pixels/frame
CC[C@H](C)[C@@H](C(=O)N[C@@H](CC(C)C)C(=O)N[C@@H](CO)C(=O)N[C@@H](CO)C(=O)N[C@H](C(=O)N[C@@H](CCC(=O)O)C(=O)N[C@H](C(=O)NCC(=O)N[C@@H](CO)C(=O)NCC(=O)N[C@H](C(=O)N1C[C@H](O)C[C@H]1C(N)=O)[C@@H](C)O)C(C)C)[C@@H](C)O)N(C)C(=O)[C@H](C)NC(=O)CN(C)C(=O)[C@H](Cc1ccccc1)NC(=O)[C@H](CO)NC(=O)[C@H](CO)NC(=O)[C@H](CCCNC(=N)N)NC(=O)[C@H](CCC(N)=O)NC(=O)[C@H](CC(C)C)NC(=O)[C@H](Cc1ccccc1)NC(=O)[C@H](Cc1c[nH]cn1)NC(=O)[C@H](C)NC(=O)[C@H](CC(C)C)NC(=O)[C@H](CCCNC(=N)N)NC(=O)[C@H](CCC(N)=O)NC(=O)[C@@H](NC(=O)[C@H](C)NC(=O)[C@@H]1CSSC[C@H](NC(=O)[C@H](CCCNC(=N)N)NC(=O)CC[C@H](NC(=O)CCCCCCCCCCCCCCCCCCC(=O)O)C(=O)O)C(=O)N[C@@H](CC(N)=O)C(=O)N[C@@H]([C@@H](C)O)C(=O)N[C@@H](C)C(=O)N[C@@H]([C@@H](C)O)C(=O)N1)[C@@H](C)O |  |  | male Sprague-Dawley rats | subcutaneous, 30 nmol/kg single dose, 96 h |  | body weight loss | 5.8 ± 0.5%
Oc1cc2c(cc1O)C(c1cccc3ccccc13)NCC2 (stereo not shown) |  | DPPH scavenging, absorbance |  | 30 min, dark |  | IC50 | 24.3 µM
NNC(=O)Cc1ccccc1 |  | hydrazine ligation kinetics, absorbance |  | concentration not given, 15 s, added: 2-formylphenylboronic acid |  | normalised absorbance | 0.448
CC[C@H](C)[C@@H](C(=O)N[C@@H](CC(C)C)C(=O)N[C@@H](CO)C(=O)N[C@@H](CO)C(=O)N[C@H](C(=O)N[C@@H](CCC(=O)O)C(=O)N[C@H](C(=O)NCC(=O)N[C@@H](CO)C(=O)N[C@@H](CC(N)=O)C(=O)N[C@H](C(=O)N1C[C@H](O)C[C@H]1C(N)=O)[C@@H](C)O)C(C)C)[C@@H](C)O)N(C)C(=O)[C@H](C)NC(=O)CN(C)C(=O)[C@H](Cc1ccccc1)NC(=O)[C@H](CO)NC(=O)[C@H](CO)NC(=O)[C@H](CCCNC(=N)N)NC(=O)[C@H](CCC(N)=O)NC(=O)[C@H](CC(C)C)NC(=O)[C@H](Cc1ccccc1)NC(=O)[C@H](CCCC(=O)O)NC(=O)[C@H](C)NC(=O)[C@H](CC(C)C)NC(=O)[C@H](CCCNC(=N)N)NC(=O)[C@H](CCC(=O)O)NC(=O)[C@@H](NC(=O)[C@H](C)NC(=O)[C@@H]1CCCCNC(=O)C[C@H](NC(=O)[C@H](CCCNC(=N)N)NC(=O)CC[C@H](NC(=O)CCCCCCCCCCCCCCCCCCC(=O)O)C(=O)O)C(=O)NCC(=O)N[C@@H]([C@@H](C)O)C(=O)N[C@@H](C)C(=O)N[C@@H]([C@@H](C)O)C(=O)N1)[C@@H](C)O |  |  | diet-induced obese rats | subcutaneous, 3 nmol/kg every other day, day 4 | relative to: day 0 | body weight change | 0.2%
Cc1ccc(NC(=O)CCN2CCCCCC2)cc1C |  | locomotor activity in dark | Danio rerio larvae, 7 dpf, well of 10 larvae | 10 µM, minute 7, dark |  | third-quartile larval motion | 0.7 ± 0.4 pixels/frame
CCOC(=O)NN |  | hydrazine ligation kinetics, absorbance |  | concentration not given, 30 s, added: 2-formylphenylboronic acid |  | normalised absorbance | 0.798
O=C(NCC1OC2CCC=CCCC2O1)c1ccc(F)nc1 (stereo not shown) |  | IEDDA cycloaddition, substrate, stopped-flow spectrophotometry | water/methanol 45:55 | 1.5 mM, 298 K, added: methyltetrazine-NHS 0.05 mM |  | observed rate constant kobs | 15.82 ± 0.0335 s⁻¹
COC1CN([C@H]2CC[C@H]([C@@]3(C)Oc4c(Cl)cc(C(=O)NCc5c(SC)cc(C)[nH]c5=O)c(C)c4O3)CC2)C1 |  | RNA-seq, measured: ARPP21 | human, whole blood | dose not given, 24 h | relative to: pretreatment baseline | log2 fold change | 8.33
CCOC(=S)NCc1ccc(O[C@@H]2O[C@@H](C)[C@H](O)[C@@H](O)[C@H]2O)cc1 |  | ABTS radical |  | 300 µg/mL |  | radical scavenging | 9.09 ± 1.43%

For quick reference, copied from above:
SMILES | tested on | assay | system | conditions | scale | endpoint | value
Cc1ccc(C)c(OCC(O)CN2CCN(c3cc(Cl)ccc3C)CC2)c1 (stereo not shown) |  | locomotor activity in dark | Danio rerio larvae, 7 dpf, well of 10 larvae | 10 µM, minute 7, dark |  | third-quartile larval motion | 0 pixels/frame
CCOCc1ccc(O[C@@H]2O[C@@H](C)[C@H](O)[C@@H](O)[C@H]2O)cc1 |  | ABTS radical |  | 300 µg/mL |  | radical scavenging | 11.5 ± 0.4%
